Experimental data of several laboratories.
± marks the error that the study gave. Values after ≈ are worked out from the molar mass of the structure shown.

CO[C@H]1C[C@@H]2CC[C@@H](C)[C@@](O)(O2)C(=O)C(=O)N2CCCC[C@H]2C(=O)O[C@H]([C@H](C)C[C@@H]2CC[C@@H](OC(=O)NCCOCCOCCOCCOCCOCCOCCOCCOCCC(=O)N3CCc4cc(Cn5nc(-c6ccc7oc(N)nc7c6)c6c(N)ncnc65)ccc4C3)[C@H](OC)C2)C[C@@H](O)[C@H](C)/C=C(\C)[C@@H](O)[C@@H](OC)C(=O)[C@H](C)C[C@H](C)/C=C/C=C/C=C/1C  patients with AE (item: treatment-related AEs; patients with advanced solid tumours; intravenous, dose not given, grade ≥3, all doses): 0%
O.O.O.O.O.O.[Cl-].[Cl-].[Co+2]  cobalt in faeces (rat male, faeces; oral, 10 mg/kg single, day 3; relative to: vehicle control subtracted): 1.69 µg/g
O=C1Nc2cc3[nH]nc(-c4ccncc4)c3cc2CN1Cc1ccccc1  patients with cough (CTCAE v4.03; advanced solid tumour patients; intravenous, 1.8 mg/kg, schedules 1/2): 0%
CC(C)=CC1C(C(=O)OC(C#N)c2cccc(Oc3ccccc3)c2)C1(C)C (stereo not drawn)  enzyme contribution to clearance (item: CYP3A5; human, age 6 months): 0.26%
C[C@@H]1NC(=O)[C@H](CCCCNC(=O)CO/N=C/C(=O)NCCCC[C@@H]2NC(=O)[C@@H](Cc3ccccc3)NC(=O)[C@H](CC(=O)O)NC(=O)CNC(=O)[C@H](CCCNC(=N)N)NC2=O)NC(=O)CNC(=O)[C@@H]2CCCN2C(=O)[C@H](CCCCNC(=O)CO/N=C/C(=O)NCCCC[C@@H]2NC(=O)[C@@H](Cc3ccccc3)NC(=O)[C@H](CC(=O)O)NC(=O)CNC(=O)[C@H](CCCNC(=N)N)NC2=O)NC(=O)[C@H](CCCCNC(=O)[C@H](CCCCN)NC(=O)[C@H](Cc2ccccc2)NC(=O)CNC(=O)CN2CCCNCCNCCCNCC2)NC(=O)[C@H](CCCCNC(=O)CO/N=C/C(=O)NCCCC[C@@H]2NC(=O)[C@@H](Cc3ccccc3)NC(=O)[C@H](CC(=O)O)NC(=O)CNC(=O)[C@H](CCCNC(=N)N)NC2=O)NC(=O)CNC(=O)[C@@H]2CCCN2C(=O)[C@H](CCCCNC(=O)CO/N=C/C(=O)NCCCC[C@@H]2NC(=O)[C@@H](Cc3ccccc3)NC(=O)[C@H](CC(=O)O)NC(=O)CNC(=O)[C@H](CCCNC(=N)N)NC2=O)NC1=O [copper-64 labelled]  tissue uptake (PET imaging; mouse, U-87 MG tumour xenograft, kidney; intravenous, 24 h): 4.35 ± 0.45 %ID/g
CC[C@H](C)[C@H](NC(=O)[C@H](CO)NC(=O)[C@H](CC(N)=O)NC(=O)[C@H](CC(C)C)NC(=O)[C@H](Cc1ccc(O)cc1)NC(=O)[C@H](CCCCN)NC(=O)[C@H](CCCCN)NC(=O)[C@@H](NC(=O)[C@H](C)NC(=O)[C@H](CCSC)NC(=O)[C@H](CCC(N)=O)NC(=O)[C@H](CCCCN)NC(=O)[C@H](CCCN=C(N)N)NC(=O)[C@H](CC(C)C)NC(=O)[C@H](CCCN=C(N)N)NC(=O)[C@@H](NC(=O)[C@H](Cc1ccc(O)cc1)NC(=O)[C@H](CC(N)=O)NC(=O)[C@H](CC(=O)O)NC(=O)[C@@H](NC(=O)[C@H](Cc1ccccc1)NC(=O)[C@@H](NC(=O)[C@H](C)NC(=O)[C@H](CC(=O)O)NC(=O)[C@H](CO)NC(=O)[C@@H](N)Cc1c[nH]cn1)C(C)C)[C@@H](C)O)[C@@H](C)O)C(C)C)C(=O)N[C@@H](CC(C)C)C(=O)N[C@@H](CC(N)=O)C(N)=O  systolic blood pressure decrease (tail-cuff; BALB/c mice; subcutaneous, 2.5 µg/kg): 19.3 mmHg
O=c1nc(NO)ccn1[C@@H]1O[C@H](CO)[C@@H](O)[C@H]1O  autosampler stability (rat fetus dialysate; 25 ng/mL, 6 h, 10 °C, low QC concentration, with: molnupiravir): 94.2 ± 1.45%
NCCCC[C@@H]1NC(=O)[C@@H](Cc2c[nH]c3ccccc23)NC(=O)[C@H](c2ccccc2)NC(=O)[C@@H]2C[C@@H](OC(=O)NCCN)CN2C(=O)[C@H](Cc2ccccc2)NC(=O)[C@H](Cc2ccc(OCc3ccccc3)cc2)NC1=O  placebo-corrected QTcF change (healthy volunteers, female; 1950 µg twice daily, 8.0 h, post hoc): 0.1 ms
COc1cc(Nc2ncc(F)c(Nc3ccc4c(n3)NC(=O)C(C)(C)O4)n2)cc(OC)c1OC  solubility (HEPES buffer; 3 h, pH 7.4, 1% DMSO): 5.6 µM (≈ 2.63 µg/mL)
O=C1[O][Pt]2([NH][C@@H]3CCCC[C@H]3[NH]2)[O]C1=O  tumour to organ ratio (AUC-based, item: platinum; BALB/c mice, CT26 tumour; iv; relative to: tumour over serum): 1.2
COc1cc2c(Oc3ccc4[nH]c(C)cc4c3F)ccnc2cc1OCC1(N)CC1  ALT elevation incidence (paediatric refractory sarcoma patients; 8 mg): 25%
CN1CC[C@@H](c2c(O)cc(O)c3c(=O)cc(-c4ccc(C(F)(F)F)cc4Cl)oc23)[C@@H]1CO  dizziness incidence (human, relapsed/refractory hematologic malignancies; oral, dose not given): 15%
CC(C)(O)c1cc(Nc2cc(Oc3cn(C4CC4)nc3C3CCOCC3)ccn2)ccn1  treatment-emergent adverse events (Anemia; advanced cancer patients, grade 4 glioma expansion; oral, 50 mg twice daily, all causality any grade): 0%
Fc1ccc([C@@H]2CCNC[C@H]2COc2ccc3c(c2)OCO3)cc1  List of Complaints score (item: Bruxism; healthy volunteers; oral, dose not given, given -1 h relative to LSD, with: LSD; direction not given): 3 score
CC(C)[C@@H]1NC(=O)CNC(=O)[C@H](CC(N)=O)NC(=O)[C@H](CCCNC(=N)N)NC(=O)[C@H](Cc2ccc(O)cc2)NC(=O)[C@H](C(C)C)NC(=O)[C@@H](NC(=O)[C@@H](NC(=O)[C@H](CC(N)=O)NC(=O)[C@H](Cc2c[nH]c3ccccc23)NC(=O)[C@H](C)NC(=O)[C@H](Cc2ccccc2)NC(=O)CN)C(C)C)CSSC[C@@H](C(=O)N[C@@H](Cc2cnc[nH]2)C(=O)N[C@@H](CCCNC(=N)N)C(=O)N[C@@H](CCCNC(=N)N)C(=O)N[C@@H](C)C(=O)N[C@@H](CC(N)=O)C(N)=O)NC(=O)[C@H](C(C)C)NC(=O)[C@H](CCCNC(=N)N)NC1=O  MCH (ICR mouse, blood; intramammary, 10 mg/kg, day 5, 3 d dosing): 13.5 ± 0.28 pg
C[C@@H]1OC(=O)NN=C1c1ccc(-c2ccc(F)cc2)c(C(F)(F)F)c1  patients with adverse event (phase I trial, item: Ascites worst grade 2; human patients; 10 mg loading then 0.5 mg daily): 0%
C[C@]1(CO)Cc2ncn(-c3ccc(C#N)c(Cl)c3)c2C(=O)O1  any TEAE (human; all treatments, European food-effect part): 25%
CN[C@@H](C)C(=O)N[C@H]1CN(S(=O)(=O)c2cccc(S(=O)(=O)N3CC[C@H]4CC[C@@H](C(=O)NC(c5ccccc5)c5ccccc5)N4C(=O)[C@@H](NC(=O)[C@H](C)NC)C3)c2)CC[C@H]2CC[C@@H](C(=O)NC(c3ccccc3)c3ccccc3)N2C1=O  treatment-related AST elevation incidence (patients with advanced solid tumours; 12 mg, phase I monotherapy): 0%
Cn1ncc(-c2nc(N[C@H]3CC[C@H](N)CC3)ncc2Cl)c1CC1CC1  AUC (HPLC-MS/MS; patients, plasma; oral, 5 mg, day 5): 702 ng·h/mL
C[C@@H](NC(=O)N1C(=O)[C@H](Cc2ccnc(N)c2)[C@H]1C(=O)O)C1CCCCC1  serious adverse events (healthy Chinese adult volunteers; continuous intravenous infusion, dose not given, 5.0 days, CTCAE 5.0, all doses): 0%
Clc1ccc(-c2ccccc2)cc1  serum Calcium (rat Sprague-Dawley female, serum; inhalation, 35 µg/rat, 24 h): 10 ± 0.6 mg/dL
CCS(=O)(=O)Nc1ccc(Oc2ccc(F)cc2F)c(-c2cn(C)c(=O)c3[nH]ccc23)c1  treatment-emergent adverse events (malignant neoplasm progression leading to discontinuation; human, relapsed/refractory AML; oral, dose not given): 0%
CCC[C@@](N)(CO)CCc1ccc(OCCCCCC(C)C)cc1  Tmax (male hound dog, plasma; oral, 2.5 mg/kg, solution, median): 3.13 h
COc1ccnc(C(=O)N[C@H]2COC(=O)[C@H](Cc3ccccc3)[C@@H](OC(=O)C(C)C)[C@H](C)OC2=O)c1OCOC(=O)C(C)C  DT50 (sediment, aerobic water/sediment; 20 °C, geometric mean): 2.18 days
CC(C)[C@@H](CN1CC[C@@](C)(c2cccc(O)c2)[C@@H](C)C1)NC(=O)[C@@]1(C)Cc2ccc(O)cc2CN1  AUCtotal (rat, brain; intraperitoneal, 5 mg/kg): 1380 ng·h/g
O=S(=O)(Nc1ccccc1)c1ccc(NC(=S)Nc2ccccc2)cc1  relative organ weight (female mice, lung; oral, 80 mg/kg daily 14 days; relative to: body weight): 0.9%
CC(=O)c1c(C)c2cnc(Nc3ccc(C4CCN(CCS(C)(=O)=O)CC4)cn3)nc2n(C2CCCC2)c1=O  patients with any TRAE (HR+/HER2- advanced breast cancer patients; oral, 50 mg): 100%

For quick reference, copied from above:
Clc1ccc(-c2ccccc2)cc1  serum Calcium (rat Sprague-Dawley female, serum; inhalation, 35 µg/rat, 24 h): 10 ± 0.6 mg/dL
CCS(=O)(=O)Nc1ccc(Oc2ccc(F)cc2F)c(-c2cn(C)c(=O)c3[nH]ccc23)c1  treatment-emergent adverse events (malignant neoplasm progression leading to discontinuation; human, relapsed/refractory AML; oral, dose not given): 0%
CCC[C@@](N)(CO)CCc1ccc(OCCCCCC(C)C)cc1  Tmax (male hound dog, plasma; oral, 2.5 mg/kg, solution, median): 3.13 h
COc1ccnc(C(=O)N[C@H]2COC(=O)[C@H](Cc3ccccc3)[C@@H](OC(=O)C(C)C)[C@H](C)OC2=O)c1OCOC(=O)C(C)C  DT50 (sediment, aerobic water/sediment; 20 °C, geometric mean): 2.18 days
